Measured values collected from several papers.
Numbered parts are unrelated; each lists some results of a single study.

Study 1
Target: RING finger protein unkempt homolog, zinc fingers 1-6, GST-SBP tag (UNK, Homo sapiens, UniProt Q9C0B0, residues 30-357)
Technique: RNA Bind-n-Seq
Form: RNA
Medium: in vitro
Tested at: not given
Notes: RNA with constant flanks, human and mouse sites, ends assumed
Baseline: input RNA pool
Direction: higher = stronger binding
Construct (chain): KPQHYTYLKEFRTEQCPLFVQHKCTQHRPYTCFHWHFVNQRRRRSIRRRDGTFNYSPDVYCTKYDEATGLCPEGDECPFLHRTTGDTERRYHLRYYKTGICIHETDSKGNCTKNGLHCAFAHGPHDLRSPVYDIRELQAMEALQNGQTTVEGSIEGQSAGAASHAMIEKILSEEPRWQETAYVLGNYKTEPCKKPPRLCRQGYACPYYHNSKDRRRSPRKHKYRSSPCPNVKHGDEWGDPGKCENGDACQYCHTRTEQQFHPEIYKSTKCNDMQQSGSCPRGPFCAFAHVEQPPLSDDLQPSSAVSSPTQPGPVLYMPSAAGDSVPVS
With `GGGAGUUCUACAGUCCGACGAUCCUUAUAGUCUAUGGUAGUUUCAGGUCUCUUAAUAUGGACUUUGAAAACCAAGAUAAGGAGAAAGACAGCAACAGUUCUUCUGGCUCUUUCAAUGGCAACAGCACCAAUAACAGCAUCCAGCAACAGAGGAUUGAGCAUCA` the bound/input enrichment was 0.153 ratio.
For `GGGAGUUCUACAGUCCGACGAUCAAAAUGGAGAAUGGGUCCUUGAAGGCUCUUUUGGAGGCUGAUAAGCAAAAAGCCAUAGAGGCCAGCAGUACUGUGGGGCAGACAGCAGAGAACUUCGAGGUUCAGGAGAUGCUGAAAGUGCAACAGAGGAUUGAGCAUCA`, the bound/input enrichment was 0.184 ratio.
`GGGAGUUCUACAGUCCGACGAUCUAGACGGGAAGGAUUAUAUAGCUUCCUUACCUUUUCAGGUGGCAAAUGUUUGGGCCACUAAAUAUGGCUUGCUGUUUGAACGAUGCAGUUCUUCACAUGAGGUACCUCCAAGUCUACCUACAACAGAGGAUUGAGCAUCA` has a bound/input enrichment of 0.0824 ratio.
The bound/input enrichment of `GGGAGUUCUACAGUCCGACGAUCAUUUACUUCUGGAACAUAGCCACCAUUGCGGUCUUCUACGCACUUCCUGUGGUGCAGCUGGUGAUCACCUACCAGACGGUGGUGAAUGUCACAGGGAACCAGGACAUCUGCUACUACAACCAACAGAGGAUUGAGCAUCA` is reported as 0.145 ratio.
`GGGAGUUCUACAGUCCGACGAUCGAUAUACUUACGUAAUGGAGCUGUCAAAGCCGAGAGACCAGCCUGCGUCCUAAAGUUUGCUUUAGAGAGUAGGAAUGUCGGGGUUUCCAGUUAGAAAACCUUUAUUUUUGGAAACGGAAUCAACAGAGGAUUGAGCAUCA` has a bound/input enrichment of 1.46 ratio.
With `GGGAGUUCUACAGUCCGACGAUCCGUGGGAAAACCAGAGCGGAGACAAUGGGGCCGAUGGGCUGGAUGAAGUGUCCUCUUGCUGGUACAAAUAAAAGAUUCCUAAUUAACACAAUUAAGAACACACUGCCCUCCCAUAAAGAGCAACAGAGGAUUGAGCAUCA` the bound/input enrichment was 0.259 ratio.
For `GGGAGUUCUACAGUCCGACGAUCUAUAGUUGGGAUGAUCAAUGCAGUGCUGUUGAAGUGGGAGAGAAGAAAUGUGGAAACCUGGCUUGUCUGCCAGAUGAGAAGAAUGUUCUUGUUGUAGCCGUCAUGCAUAACUGUGAUAAACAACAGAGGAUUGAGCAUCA`, the bound/input enrichment was 0.501 ratio.
`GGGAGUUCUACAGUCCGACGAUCGUCAUCAGCUCAAUGAGCUCCCUUUCUGAGUACUGCCUGCCUUCCAUUCUACGUACAUUAUUUGACUGGUAUAAAAGGCAAAAUGGCAUUGAGGAUGAAUCACAUGAAUACAGACCAAGACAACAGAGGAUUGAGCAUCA` gave a bound/input enrichment of 0.171 ratio.

Study 2
Target: Histone acetyltransferase KAT6A, winged helix 2, GST fusion (KAT6A, Homo sapiens, UniProt Q92794, residues 85-181)
Technique: protein binding microarray
Form: double-stranded DNA, one strand shown
Medium: in vitro
Tested at: not given
Notes: 8-mer, flanks averaged, mean of 2 arrays, mostly near background
Baseline: not given
Direction: higher = stronger binding
Construct (chain): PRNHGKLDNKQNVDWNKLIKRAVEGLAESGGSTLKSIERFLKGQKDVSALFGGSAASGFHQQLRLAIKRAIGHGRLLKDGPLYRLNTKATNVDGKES
`GTGCGTAA` has an E-score of 0.00563.
For `CAACACCC`, the E-score was -0.156.
With `TCAGGCAA` the E-score was -0.0469.
`ACATGGGG` has an E-score of -0.0529.
With `ACCTCAAA` the E-score was 0.0534.
With `AGATAGAC` the E-score was -0.00947.
For `ATTCTTCC`, the E-score was -0.147.
For `CAGAAGTC`, the E-score was -0.142.
For `AAAGATAA`, the E-score was 0.0581.
With `AGAGAACT` the E-score was -0.0906.
`ATAGTTCG` has an E-score of -0.0401.
`GCCCGCGC` has an E-score of 0.313.
The E-score of `ACCATGAG` is reported as -0.0947.
`CCACCGAA` gave an E-score of 0.128.
`CCCCAGCA` has an E-score of 0.058.
`ATGAATCA` has an E-score of 0.0688.

Study 3
Target: Protein C-ets-1 (ETS1, Homo sapiens, UniProt P14921, residues 1-441, K379A, full length assumed)
Sequence of UniProt P14921 (whole entry, unmodified, looked up): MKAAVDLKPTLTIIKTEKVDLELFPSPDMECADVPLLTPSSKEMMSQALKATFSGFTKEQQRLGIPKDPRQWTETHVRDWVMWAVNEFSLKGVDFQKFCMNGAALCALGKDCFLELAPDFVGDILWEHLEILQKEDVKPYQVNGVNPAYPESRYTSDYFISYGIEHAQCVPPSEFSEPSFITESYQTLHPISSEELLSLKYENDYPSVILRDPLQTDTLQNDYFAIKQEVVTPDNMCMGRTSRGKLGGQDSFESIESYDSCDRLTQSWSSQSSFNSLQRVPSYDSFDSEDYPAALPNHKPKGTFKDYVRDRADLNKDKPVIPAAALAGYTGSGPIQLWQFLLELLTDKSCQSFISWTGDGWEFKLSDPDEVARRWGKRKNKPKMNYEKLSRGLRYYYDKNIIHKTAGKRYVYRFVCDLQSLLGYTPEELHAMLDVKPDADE
Technique: protein-binding microarray
Form: double-stranded DNA, one strand shown
Medium: in vitro
Tested at: not given
Notes: k-mer, scored over probes, only values ≥0.25
Direction: higher = stronger binding
For `GCGGTATA`, the E-score was 0.268.
With `CCGGTACG` the E-score was 0.367.
The E-score of `GTCCGGAA` is reported as 0.267.
`GACACTAC` gave an E-score of 0.293.
With `ATATCCCG` the E-score was 0.275.
`CCGGTGTC` gave an E-score of 0.46.
For `ATGCATTA`, the E-score was 0.257.
For `CCGGAGAC`, the E-score was 0.314.
With `CTATACAG` the E-score was 0.255.
For `CCGGATTC`, the E-score was 0.277.
The E-score of `AGGTTGTA` is reported as 0.26.
`AGGAGGGG` has an E-score of 0.315.
For `ACAGATCC`, the E-score was 0.273.
With `TGCAATAA` the E-score was 0.327.
For `CGGGGTTC`, the E-score was 0.295.
With `GTATATAA` the E-score was 0.258.
The E-score of `CCGGTCCA` is reported as 0.301.
For `AAACTACA`, the E-score was 0.301.
The E-score of `CACCGCCG` is reported as 0.337.
For `GCACCGAC`, the E-score was 0.314.
For `CCACCGAC`, the E-score was 0.324.
`TCCGGTAA` gave an E-score of 0.451.
With `GCCGCCCC` the E-score was 0.31.
`ACCGGCGT` gave an E-score of 0.304.

Study 4
Target: RNA binding protein fox-1 homolog 2, RRM domain, GST-SBP tag (RBFOX2, Homo sapiens, UniProt O43251-10, residues 100-194)
Technique: RNA Bind-n-Seq
Form: RNA
Medium: in vitro
Tested at: 365 nM
Notes: natural RNA segment, single round, ends assumed
Baseline: no-protein control
Direction: higher = stronger binding
Construct (chain): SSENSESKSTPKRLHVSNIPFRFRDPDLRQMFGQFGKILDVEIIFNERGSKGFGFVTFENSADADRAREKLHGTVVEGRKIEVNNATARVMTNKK
`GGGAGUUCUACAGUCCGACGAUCGGAGGACAGCUAAAUGGACAGUCAGUCACUUUGAGGUCACUGCAUUUGACUGGAAAUGUAUAAUGUGUUUUACUGUUGAAAAAAAUAUGAGCUCUGUUUCAACUAACGUGUGGAAUUCUCGGGUGCCAA`: “RBNS enrichment (R)” 0.855.
`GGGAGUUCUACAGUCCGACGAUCAGGCCCUUCUGAGCGGAACCGUCCUGGAGAGAGCCUGCCCUCGUUUCCAGGCUGCAGCCGUAACGCACUUUCUCCCAGGCUGAGGGCGGGUGUUCUGGGGUGUCUGCCCUUGGAAUUCUCGGGUGCCAA`: “RBNS enrichment (R)” 0.266.
`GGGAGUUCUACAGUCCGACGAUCGUGUGUAACCCUGGGUAGGCCACUCCAUCUCCUAGGUGUGUAACCCUGGACAGGACAUUUCACCUGCUAGUCUGUGCUAUUCUGGUAAAAUGAAGGGAUGCAUUGGACUAUGGAAUUCUCGGGUGCCAA`: “RBNS enrichment (R)” 0.438.
`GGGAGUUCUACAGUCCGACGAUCGCAAUAAGAGGCUCUAAGCUGACUGAGUUGCAAGGACCCUUUCCGCCCUCCCUUGGAUCUCCAUGUUUUUCCAGAUGGCGGAAGAGCAUGUGCCACCCCCUUUCCUAACAUGGAAUUCUCGGGUGCCAA`: “RBNS enrichment (R)” 0.804.
`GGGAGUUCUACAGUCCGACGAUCUCUGAAUUUAACAAAUGCUUAGUCUCAGCAGCCUCCGGGGGAAAAAAGCUUAGCCUAGCAGUCAGUGACUUACUUGCACUUUUUGCACAUAGAUAUAAAGUAAAAUUAUGUGGAAUUCUCGGGUGCCAA` — result for “RBNS enrichment (R)”: 0.662.
`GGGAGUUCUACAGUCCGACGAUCUGUAGAAUGGCUUUUUCUUUUUCCUCUUAAGAGUUCUAUUCUUCAGGUAGAUAAUUUUUCAAAUGUGAAUUAUCUUUUGUGUCUAUAUUGAUAGCUCUUAAAGGAGUGAAUGGAAUUCUCGGGUGCCAA` — result for “RBNS enrichment (R)”: 0.481.
For `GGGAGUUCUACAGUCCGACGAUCGCUGGGAGCCCUUGUGUGUCUGGUCACACUUUUUAGGCGUCACGCCAAAGGCCAGCCUCCUGGCCCCAAUACCCAUUUUGGAAGCCCCUGUGGCCGUGUGGAUGUCGGUAUGGAAUUCUCGGGUGCCAA`, “RBNS enrichment (R)” read 0.319.
`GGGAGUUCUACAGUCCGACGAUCUUUCCACUCUGCACAUUGUAGAGGGGACACCGAAGGCCCAUGGGUCCCUAAUUAAAGAAGUUGAGUGAAUUUGCCUUCGUUCAACCAGGGACCUAUCUCACUCCCUCCCAUGGAAUUCUCGGGUGCCAA` — result for “RBNS enrichment (R)”: 0.252.

Study 5
Target: Sal-like protein 4, full length isoform A (SALL4, Homo sapiens, UniProt Q9UJQ4, residues 1-1053)
Sequence of UniProt Q9UJQ4 (whole entry, looked up): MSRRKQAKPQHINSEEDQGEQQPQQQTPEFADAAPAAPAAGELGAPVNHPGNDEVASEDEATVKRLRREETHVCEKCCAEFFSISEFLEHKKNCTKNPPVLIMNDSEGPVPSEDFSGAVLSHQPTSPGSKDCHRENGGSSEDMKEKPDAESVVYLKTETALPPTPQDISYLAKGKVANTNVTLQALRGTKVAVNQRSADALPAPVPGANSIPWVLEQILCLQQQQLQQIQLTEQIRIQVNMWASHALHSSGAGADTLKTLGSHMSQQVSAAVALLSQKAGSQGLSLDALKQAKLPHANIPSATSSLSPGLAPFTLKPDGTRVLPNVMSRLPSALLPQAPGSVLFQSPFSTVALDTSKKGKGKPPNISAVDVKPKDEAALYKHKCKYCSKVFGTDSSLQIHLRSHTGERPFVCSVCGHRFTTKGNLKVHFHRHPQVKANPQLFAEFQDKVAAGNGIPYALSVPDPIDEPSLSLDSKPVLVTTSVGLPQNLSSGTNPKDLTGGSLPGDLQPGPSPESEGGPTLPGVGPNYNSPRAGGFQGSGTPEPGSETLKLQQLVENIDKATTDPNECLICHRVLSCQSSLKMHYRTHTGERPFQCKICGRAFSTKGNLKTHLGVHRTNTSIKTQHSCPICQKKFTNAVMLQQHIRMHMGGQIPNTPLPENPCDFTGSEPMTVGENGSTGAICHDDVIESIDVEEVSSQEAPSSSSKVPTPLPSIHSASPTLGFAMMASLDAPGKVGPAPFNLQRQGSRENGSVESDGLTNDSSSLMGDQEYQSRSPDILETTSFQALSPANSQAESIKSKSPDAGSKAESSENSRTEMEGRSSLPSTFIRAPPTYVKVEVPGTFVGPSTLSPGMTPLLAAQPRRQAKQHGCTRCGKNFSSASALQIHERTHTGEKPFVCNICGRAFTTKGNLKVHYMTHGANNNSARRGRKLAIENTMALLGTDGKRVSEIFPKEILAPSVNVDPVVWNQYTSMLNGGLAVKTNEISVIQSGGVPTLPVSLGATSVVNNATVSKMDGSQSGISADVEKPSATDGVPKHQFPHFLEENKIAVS
Technique: universal PBM
Form: double-stranded DNA, one strand shown
Medium: in vitro
Tested at: 600 nM
Notes: 8-mer, flanks averaged, mean of replicates
Direction: higher = stronger binding
`CTAGGTAC` gave an E-score of -0.126.
`AACTCGCA` has an E-score of 0.0446.
For `AACAAAGT`, the E-score was 0.0996.
With `TGACACCA` the E-score was -0.113.
`CGATTGTC` has an E-score of -0.0021.
The E-score of `AGCTAAAT` is reported as 0.0652.
With `CCAAGAGC` the E-score was -0.283.
`AATACTTA` has an E-score of 0.3.
With `CTCGACAG` the E-score was -0.137.
`GCTCGCAA` gave an E-score of -0.0432.
With `CCACATGA` the E-score was 9e-05.
The E-score of `AGCCAGCT` is reported as -0.231.
For `AGTTCCAT`, the E-score was 0.0982.
The E-score of `GCGTGACA` is reported as -0.0792.
`ACTAGAGC` has an E-score of -0.124.
For `CAAGGACC`, the E-score was -0.189.
With `AAGGTTCT` the E-score was -0.00417.
`ACCCGAGC` has an E-score of -0.144.
`ACTCTCGG` has an E-score of -0.2.
`ATGCGCCG` has an E-score of -0.152.
`AGCAATAG` gave an E-score of -0.0337.
`CCTTCACA` gave an E-score of 0.157.
For `AATTCAGG`, the E-score was 0.0968.
For `AAAAAAGT`, the E-score was 0.236.
`CGGGGGAG` has an E-score of -0.276.

Excerpt of the above (study 5):
`GCTCGCAA` gave an E-score of -0.0432.
With `CCACATGA` the E-score was 9e-05.
The E-score of `AGCCAGCT` is reported as -0.231.
For `AGTTCCAT`, the E-score was 0.0982.
The E-score of `GCGTGACA` is reported as -0.0792.
`ACTAGAGC` has an E-score of -0.124.
For `CAAGGACC`, the E-score was -0.189.
With `AAGGTTCT` the E-score was -0.00417.
`ACCCGAGC` has an E-score of -0.144.
`ACTCTCGG` has an E-score of -0.2.
`ATGCGCCG` has an E-score of -0.152.
`AGCAATAG` gave an E-score of -0.0337.
`CCTTCACA` gave an E-score of 0.157.
